Results collected from several papers.
Numbered parts are unrelated; each lists some results of a single study. Several values in a cell are separate wells, animals, samples, runs or records.
UniProt P10721, sequence (whole entry, unmodified, looked up): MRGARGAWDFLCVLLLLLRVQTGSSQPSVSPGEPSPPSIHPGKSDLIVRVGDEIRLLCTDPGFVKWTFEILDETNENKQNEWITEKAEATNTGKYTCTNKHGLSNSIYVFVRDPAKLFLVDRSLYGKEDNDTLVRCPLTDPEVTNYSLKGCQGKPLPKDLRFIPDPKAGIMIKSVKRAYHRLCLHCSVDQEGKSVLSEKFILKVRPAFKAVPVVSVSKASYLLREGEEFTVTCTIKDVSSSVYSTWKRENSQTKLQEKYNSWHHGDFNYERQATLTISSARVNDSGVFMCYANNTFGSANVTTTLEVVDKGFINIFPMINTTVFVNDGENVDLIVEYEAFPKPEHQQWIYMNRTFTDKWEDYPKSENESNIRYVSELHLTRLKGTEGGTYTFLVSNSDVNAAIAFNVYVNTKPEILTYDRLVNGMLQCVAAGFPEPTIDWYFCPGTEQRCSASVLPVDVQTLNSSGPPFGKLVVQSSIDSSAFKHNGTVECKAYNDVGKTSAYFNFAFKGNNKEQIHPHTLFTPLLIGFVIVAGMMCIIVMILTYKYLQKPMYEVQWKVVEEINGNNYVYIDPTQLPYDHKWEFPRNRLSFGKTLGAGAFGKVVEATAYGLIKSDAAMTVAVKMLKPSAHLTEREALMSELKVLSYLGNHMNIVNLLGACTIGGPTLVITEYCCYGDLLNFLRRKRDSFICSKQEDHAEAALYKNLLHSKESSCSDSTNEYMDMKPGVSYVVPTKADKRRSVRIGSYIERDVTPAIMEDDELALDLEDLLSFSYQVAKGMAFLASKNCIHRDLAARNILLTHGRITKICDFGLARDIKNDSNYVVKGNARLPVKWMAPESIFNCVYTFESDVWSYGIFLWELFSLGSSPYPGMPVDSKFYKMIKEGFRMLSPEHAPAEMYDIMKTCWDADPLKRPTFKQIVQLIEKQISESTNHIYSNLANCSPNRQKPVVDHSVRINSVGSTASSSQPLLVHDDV
UniProt P42336, sequence (whole entry, unmodified, looked up): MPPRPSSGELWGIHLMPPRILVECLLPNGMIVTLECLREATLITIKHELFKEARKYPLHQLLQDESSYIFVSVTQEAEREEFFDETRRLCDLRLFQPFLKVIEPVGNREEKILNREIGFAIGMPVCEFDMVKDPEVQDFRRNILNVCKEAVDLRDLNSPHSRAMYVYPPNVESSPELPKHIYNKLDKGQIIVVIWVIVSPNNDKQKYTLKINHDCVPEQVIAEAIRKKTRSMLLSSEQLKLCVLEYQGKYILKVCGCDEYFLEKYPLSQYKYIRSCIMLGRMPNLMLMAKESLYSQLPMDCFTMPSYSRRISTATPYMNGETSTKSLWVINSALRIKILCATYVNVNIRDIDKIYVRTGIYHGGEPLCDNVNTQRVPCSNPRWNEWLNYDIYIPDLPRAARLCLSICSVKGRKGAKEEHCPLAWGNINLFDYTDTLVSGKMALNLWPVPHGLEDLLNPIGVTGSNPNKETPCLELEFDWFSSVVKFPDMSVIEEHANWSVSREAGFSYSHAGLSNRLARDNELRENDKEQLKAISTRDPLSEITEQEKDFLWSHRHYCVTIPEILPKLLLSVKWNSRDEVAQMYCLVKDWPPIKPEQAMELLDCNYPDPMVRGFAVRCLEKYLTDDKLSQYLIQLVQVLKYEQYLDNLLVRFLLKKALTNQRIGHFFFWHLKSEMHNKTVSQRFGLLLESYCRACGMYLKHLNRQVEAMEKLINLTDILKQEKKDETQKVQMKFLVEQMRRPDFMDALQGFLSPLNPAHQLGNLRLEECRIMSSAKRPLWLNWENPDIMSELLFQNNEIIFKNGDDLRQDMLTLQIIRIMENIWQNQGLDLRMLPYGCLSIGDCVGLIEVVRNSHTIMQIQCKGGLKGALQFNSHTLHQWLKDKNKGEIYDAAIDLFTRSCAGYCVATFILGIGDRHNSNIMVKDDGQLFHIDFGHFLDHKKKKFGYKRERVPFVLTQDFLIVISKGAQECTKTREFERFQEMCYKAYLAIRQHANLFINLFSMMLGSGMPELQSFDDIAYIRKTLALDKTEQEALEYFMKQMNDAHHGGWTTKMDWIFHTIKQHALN
UniProt Q9Y2I7, sequence (whole entry, looked up): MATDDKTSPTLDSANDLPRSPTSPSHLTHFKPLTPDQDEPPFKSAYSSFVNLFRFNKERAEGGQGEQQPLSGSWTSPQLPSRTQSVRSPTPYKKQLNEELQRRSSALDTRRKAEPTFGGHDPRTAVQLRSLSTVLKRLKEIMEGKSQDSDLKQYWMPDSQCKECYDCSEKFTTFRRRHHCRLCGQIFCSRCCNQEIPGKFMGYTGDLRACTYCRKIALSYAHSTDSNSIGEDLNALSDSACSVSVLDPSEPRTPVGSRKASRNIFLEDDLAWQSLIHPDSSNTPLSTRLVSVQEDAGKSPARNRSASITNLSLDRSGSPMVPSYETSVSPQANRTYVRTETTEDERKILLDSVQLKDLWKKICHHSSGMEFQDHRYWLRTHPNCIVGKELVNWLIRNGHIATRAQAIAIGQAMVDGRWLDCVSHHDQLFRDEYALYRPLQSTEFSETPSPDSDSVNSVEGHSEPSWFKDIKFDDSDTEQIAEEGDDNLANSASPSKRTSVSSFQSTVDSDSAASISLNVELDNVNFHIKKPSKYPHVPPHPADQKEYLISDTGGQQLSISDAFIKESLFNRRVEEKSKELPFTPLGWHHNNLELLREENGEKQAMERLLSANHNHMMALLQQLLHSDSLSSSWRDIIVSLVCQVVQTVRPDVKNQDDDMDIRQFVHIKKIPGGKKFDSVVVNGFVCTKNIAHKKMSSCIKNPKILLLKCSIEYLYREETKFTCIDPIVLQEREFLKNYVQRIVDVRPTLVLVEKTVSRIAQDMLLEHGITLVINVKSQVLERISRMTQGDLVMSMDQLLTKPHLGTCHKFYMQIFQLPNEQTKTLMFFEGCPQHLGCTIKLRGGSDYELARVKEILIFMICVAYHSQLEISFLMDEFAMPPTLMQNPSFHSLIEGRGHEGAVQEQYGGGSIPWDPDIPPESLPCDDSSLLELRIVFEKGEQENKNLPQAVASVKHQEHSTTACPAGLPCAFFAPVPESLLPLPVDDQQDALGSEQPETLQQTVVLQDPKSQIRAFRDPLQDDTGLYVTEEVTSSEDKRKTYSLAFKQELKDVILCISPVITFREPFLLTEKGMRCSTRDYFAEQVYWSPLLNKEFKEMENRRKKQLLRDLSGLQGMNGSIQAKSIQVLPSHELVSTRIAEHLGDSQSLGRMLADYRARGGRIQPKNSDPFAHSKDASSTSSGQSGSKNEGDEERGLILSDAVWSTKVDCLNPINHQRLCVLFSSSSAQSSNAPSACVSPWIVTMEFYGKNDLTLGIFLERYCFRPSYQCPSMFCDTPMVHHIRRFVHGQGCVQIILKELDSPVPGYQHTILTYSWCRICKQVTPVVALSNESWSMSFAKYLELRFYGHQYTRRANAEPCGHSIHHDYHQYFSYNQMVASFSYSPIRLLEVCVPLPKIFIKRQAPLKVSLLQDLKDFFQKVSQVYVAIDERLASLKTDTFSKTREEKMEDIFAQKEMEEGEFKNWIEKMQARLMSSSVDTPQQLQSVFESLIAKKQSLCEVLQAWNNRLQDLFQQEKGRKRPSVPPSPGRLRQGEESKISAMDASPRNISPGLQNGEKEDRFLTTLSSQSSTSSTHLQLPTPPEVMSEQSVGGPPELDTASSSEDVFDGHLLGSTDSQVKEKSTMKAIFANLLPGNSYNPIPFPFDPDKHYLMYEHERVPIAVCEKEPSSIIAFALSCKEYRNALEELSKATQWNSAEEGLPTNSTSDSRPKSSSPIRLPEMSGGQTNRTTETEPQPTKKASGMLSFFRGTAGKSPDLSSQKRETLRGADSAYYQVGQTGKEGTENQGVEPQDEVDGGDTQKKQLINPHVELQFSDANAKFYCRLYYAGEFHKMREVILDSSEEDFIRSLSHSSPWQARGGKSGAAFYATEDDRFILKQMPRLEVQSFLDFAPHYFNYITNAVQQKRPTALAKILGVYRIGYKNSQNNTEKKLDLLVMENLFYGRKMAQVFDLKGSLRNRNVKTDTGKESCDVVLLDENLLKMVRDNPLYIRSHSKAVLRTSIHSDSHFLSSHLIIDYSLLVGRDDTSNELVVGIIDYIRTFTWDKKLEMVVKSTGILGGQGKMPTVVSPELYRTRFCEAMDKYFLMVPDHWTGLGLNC
UniProt Q16584, sequence (whole entry, looked up): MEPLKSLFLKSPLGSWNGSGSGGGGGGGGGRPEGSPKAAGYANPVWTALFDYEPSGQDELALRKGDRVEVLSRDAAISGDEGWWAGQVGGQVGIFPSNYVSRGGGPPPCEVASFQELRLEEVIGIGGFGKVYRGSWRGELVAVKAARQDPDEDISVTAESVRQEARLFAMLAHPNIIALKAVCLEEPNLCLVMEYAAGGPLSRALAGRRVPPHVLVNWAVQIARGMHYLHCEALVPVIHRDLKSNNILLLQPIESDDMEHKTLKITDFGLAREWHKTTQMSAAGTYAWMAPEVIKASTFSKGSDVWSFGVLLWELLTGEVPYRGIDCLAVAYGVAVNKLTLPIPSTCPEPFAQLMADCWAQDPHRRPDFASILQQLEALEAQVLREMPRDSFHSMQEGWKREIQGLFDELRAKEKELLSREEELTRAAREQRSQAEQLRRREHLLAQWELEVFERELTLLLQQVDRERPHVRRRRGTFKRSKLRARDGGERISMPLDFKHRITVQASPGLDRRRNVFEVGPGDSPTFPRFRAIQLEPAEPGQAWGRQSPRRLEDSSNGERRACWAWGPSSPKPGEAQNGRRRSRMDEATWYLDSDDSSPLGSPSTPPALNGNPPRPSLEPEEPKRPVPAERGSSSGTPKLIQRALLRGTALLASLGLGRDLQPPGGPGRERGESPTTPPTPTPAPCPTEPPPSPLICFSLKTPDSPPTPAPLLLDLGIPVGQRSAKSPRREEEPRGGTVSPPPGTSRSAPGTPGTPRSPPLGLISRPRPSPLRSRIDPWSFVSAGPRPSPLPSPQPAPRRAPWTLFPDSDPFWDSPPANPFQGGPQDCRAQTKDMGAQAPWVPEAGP

Study 1
Compound: CN1CCC[C@H]1COc1nc2c(c(N3CCN(S(C)(=O)=O)[C@@H](CC#N)C3)n1)CCN(c1cccc3cccc(Cl)c13)C2
Observed: binding
Mode: competitor
Method: NanoBRET
Cells: HEK293
KRAS Q61L: GTPase KRas (KRAS, Homo sapiens, UniProt P01116, Q61L)
KRAS Q61R: GTPase KRas (KRAS, Homo sapiens, UniProt P01116, Q61R)
It gave 109% and 98.7% and 99.3% for normalized BRET (KRAS Q61L; 1.69 nM).
KRAS Q61L; 3.7 µM — normalized BRET: 36.3% and 30.7% and 28.8%.
KRAS Q61R; 1.69 nM — normalized BRET: 93.1% and 98.6% and 85.6%.
For KRAS Q61L; 137 nM: normalized BRET read 80.3% and 81.8% and 96%.
The normalized BRET was 67.8% and 90.4% and 65.4% (KRAS Q61R; 11.1 µM).

Study 2
Compound: CN([C@@H]1CCc2c(CC(=O)O)c3cc(S(C)(=O)=O)ccc3n2C1)S(=O)(=O)c1ccc(F)cc1
Observed: cell-free assay
Method: competition with immobilised ligand
Concentration: 1 µM
EPHA5 (Homo sapiens, UniProt P54756) — remaining binding: 78%.
SRMS (Homo sapiens, UniProt Q9H3Y6) — remaining binding: 88%.
RAF1 (Homo sapiens, UniProt P04049) — remaining binding: 100%.
It gave 79% for remaining binding (Tyrosine-protein kinase ABL1, phosphorylated (ABL1, Homo sapiens, UniProt P00519, Q252H)).
For CAMK2A (Homo sapiens, UniProt Q9UQM7): remaining binding read 100%.
The remaining binding was 100% (EGFR (Homo sapiens, UniProt P00533, G719S)).
It gave 97% for remaining binding (STK4 (Homo sapiens, UniProt Q13043)).
NEK10 (Homo sapiens, UniProt Q6ZWH5) — remaining binding: 91%.
TNK2 (Homo sapiens, UniProt Q07912) — remaining binding: 92%.
It gave 97% for remaining binding (PIKFYVE (Homo sapiens, UniProt Q9Y2I7)).
The remaining binding was 100% (MAP3K11 (Homo sapiens, UniProt Q16584)).
It gave 93% for remaining binding (CDKL5 (Homo sapiens, UniProt O76039)).
For KIT (Homo sapiens, UniProt P10721, A829P): remaining binding read 100%.
For KIT (Homo sapiens, UniProt P10721, D816V): remaining binding read 95%.
The remaining binding was 88% (LATS2 (Homo sapiens, UniProt Q9NRM7)).
For EPHB1 (Homo sapiens, UniProt P54762): remaining binding read 100%.
For BRSK1 (Homo sapiens, UniProt Q8TDC3): remaining binding read 94%.
The remaining binding was 93% (RIPK1 (Homo sapiens, UniProt Q13546)).
The remaining binding was 86% (KIT (Homo sapiens, UniProt P10721)).
It gave 100% for remaining binding (CLK4 (Homo sapiens, UniProt Q9HAZ1)).
MAP2K7 (Homo sapiens, UniProt O14733) — remaining binding: 100%.
It gave 89% for remaining binding (FGFR2 (Homo sapiens, UniProt P21802)).
Tyrosine-protein kinase ABL1, phosphorylated (ABL1, Homo sapiens, UniProt P00519, M351T) — remaining binding: 86%.
The remaining binding was 100% (KIT (Homo sapiens, UniProt P10721, V559D/V654A)).
The remaining binding was 100% (ERBB3 (Homo sapiens, UniProt P21860)).

Study 3
SMILES: CC(=O)N[C@@H](Cc1c[nH]c2ccccc12)C(=O)N[C@@H](CCC(=O)C=[N+]=[N-])C(=O)OC(C)C
Host: C57BL/6 CES1-/- mice, EL4 tumour
Route: subcutaneous
Dose: 0.3 mg/kg/day DON equivalent
Time: 5 days
For UPLC-MS/MS metabolomics, refers to: gamma-tocotrienol; EL4 tumour; normalised to tissue mass: “metabolite peak intensity” read 803000 a.u. and 681000 a.u. and 861000 a.u. and 2.54e+06 a.u. and 1.63e+06 a.u. and 3.7e+06 a.u.
It gave 1.34e+06 a.u. and 794000 a.u. and 1.42e+06 a.u. and 1.65e+06 a.u. and 2.51e+06 a.u. and 936000 a.u. for “metabolite peak intensity” (UPLC-MS/MS metabolomics, refers to: N-methylproline; EL4 tumour; normalised to tissue mass; higher = more metabolite).
For UPLC-MS/MS metabolomics, refers to: reduced glutathione (GSH); EL4 tumour; normalised to tissue mass: “metabolite peak intensity” read 4.66e+06 a.u. and 1.07e+07 a.u. and 685000 a.u. and 5.41e+06 a.u. and 529000 a.u. and 5.61e+06 a.u.
For UPLC-MS/MS metabolomics, refers to: guanosine 3'-monophosphate; EL4 tumour; normalised to tissue mass: “metabolite peak intensity” read 662000 a.u. and 367000 a.u. and 460000 a.u. and 246000 a.u. and 470000 a.u. and 641000 a.u.
The “metabolite peak intensity” was 6.55e+06 a.u. and 6.56e+06 a.u. and 1.18e+07 a.u. and 6.72e+06 a.u. and 2e+06 a.u. and 1.1e+07 a.u. (UPLC-MS/MS, refers to: homoserine; EL4, tumour; normalised to tissue mass; higher = more metabolite).
For LC-MS/MS metabolomics, refers to: proline; EL4 tumour; higher = more metabolite: “metabolite peak intensity” read 3.79e+09 a.u. and 3.06e+09 a.u. and 3.75e+09 a.u. and 4.29e+09 a.u. and 3.58e+09 a.u. and 4.53e+09 a.u.

Study 4
Cell line: mouse MPNST tumor cells
Method: high-content nuclear imaging
Refers to: cell number
Concentration: 10 µM
Time: 12 h
Setting: mean of 2 replicates
Relative to: plate mean
Direction: higher = more cells
The nuclei count of N[C@@H](CC(=O)Nc1ccc(Oc2cc(F)c(F)cc2Br)cc1)C(=O)O is reported as 1.21 z-score.
For CCN(CC)CCNC(=O)c1cc(Cl)c(N)cc1OC, the nuclei count was -0.746 z-score.
With Nc1nccc(-c2ccc3noc(-c4ccc(Cl)cc4)c3c2)n1 the nuclei count was 2.41 z-score.
O=C(NC1CC1)c1cc(-c2cccs2)on1 has a nuclei count of 3.82 z-score.
NC(=O)c1cccc(-c2cccc(OC(=O)NC3CCCCC3)c2)c1 gave a nuclei count of 1.14 z-score.
COc1ccccc1CC(=N)N1C[C@@H]2C(=O)CCC(c3ccccc3)(c3ccccc3)[C@@H]2C1 gave a nuclei count of 2.25 z-score.
CNc1nc(Nc2ccc(C(=O)N3CCOCC3)cc2OC)nc2[nH]cc(Cl)c12 has a nuclei count of 1.11 z-score.
For O=S(=O)(Cc1ccccc1)Nc1ccc(-c2ccc3c(cnn3-c3ccc(F)cc3)c2)c(C(F)(F)F)c1, the nuclei count was 4.49 z-score.

Study 5
SMILES: Cc1ccc(NC(=O)c2ccnc(C(F)(F)F)c2)cc1-c1cc(OCCO)nc(N2CCOCC2)c1
Observed: binding
Concentration: 1 µM
It gave 78% for remaining binding (MAPK6 (Homo sapiens, UniProt Q16659)).
The remaining binding was 84% (WNK1 (Homo sapiens, UniProt Q9H4A3)).
It gave 100% for remaining binding (SRPK2 (Homo sapiens, UniProt P78362)).
The remaining binding was 94% (MAP3K13 (Homo sapiens, UniProt O43283); competition with immobilised ligand).
EGFR (Homo sapiens, UniProt P00533, T790M) — remaining binding: 100%.
The remaining binding was 100% (PTK2B (Homo sapiens, UniProt Q14289)).
For PIK3CA (Homo sapiens, UniProt P42336, E545A): remaining binding read 88%.
